{"data": "Published values pooled from the literature", "target": "Phosphatidylinositol 4-phosphate 5-kinase type-1 gamma (PIP5K1C, Homo sapiens, UniProt O60331)", "chain of UniProt O60331 (whole entry, looked up)": "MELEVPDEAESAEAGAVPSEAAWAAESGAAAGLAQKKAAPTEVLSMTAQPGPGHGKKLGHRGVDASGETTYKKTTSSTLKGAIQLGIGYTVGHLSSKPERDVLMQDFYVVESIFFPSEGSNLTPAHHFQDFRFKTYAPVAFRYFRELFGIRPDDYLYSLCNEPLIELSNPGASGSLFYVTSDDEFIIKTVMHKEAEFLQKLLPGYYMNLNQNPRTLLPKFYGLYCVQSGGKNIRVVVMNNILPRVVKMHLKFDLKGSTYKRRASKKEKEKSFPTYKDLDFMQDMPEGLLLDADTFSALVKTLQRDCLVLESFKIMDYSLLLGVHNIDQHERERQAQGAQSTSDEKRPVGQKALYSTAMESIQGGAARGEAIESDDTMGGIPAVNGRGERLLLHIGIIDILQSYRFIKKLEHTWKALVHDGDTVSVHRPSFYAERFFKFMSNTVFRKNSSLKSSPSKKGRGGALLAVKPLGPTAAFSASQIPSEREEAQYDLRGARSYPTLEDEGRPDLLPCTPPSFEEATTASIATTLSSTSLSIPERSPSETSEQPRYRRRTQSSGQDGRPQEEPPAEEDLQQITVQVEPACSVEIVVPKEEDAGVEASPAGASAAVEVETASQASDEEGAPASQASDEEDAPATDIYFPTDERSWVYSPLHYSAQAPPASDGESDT"}
{"SMILES": "Nc1ncc2c(n1)-c1c([nH]c3ccc(-c4ccc(F)cc4)cc13)CCC2", "method": "DiscoverX scanMAX", "concentration": "1 µM", "reference": "untreated control", "measurement": "remaining binding", "result": "0%"}
{"SMILES": "C1=C/COCc2cc(ccc2OCCN2CCCC2)Nc2nccc(n2)-c2cccc(c2)COC/1", "concentration": "concentration not given", "measurement": "percent of control", "result": "60%"}
{"SMILES": "O=C(NC1CCC1)c1ccc2nc(-c3cccc(NS(=O)(=O)NCCN4CCCCC4)c3)cn2c1", "read-out": "enzyme activity", "concentration": "10 µM", "measurement": "remaining activity", "result": "51%"}
{"SMILES": "C=CC(=O)N1CCC(COCC(=O)N2CCN(c3nc(-c4cnc(N)nc4C(F)F)nc(N4CCOC[C@@H]4C)n3)CC2)CC1", "method": "KINOMEscan", "concentration": "1 µM", "reference": "DMSO control", "measurement": "remaining binding", "result": "95%"}
{"SMILES": "CC(=O)Nc1nc(C)c(-c2ccc(Cl)c(S(=O)(=O)NCCO)c2)s1", "read-out": "kinase activity", "method": "ADP-Glo", "measurement": "Hill slope", "result": -1.44}
{"SMILES": "COc1cc(F)ccc1-c1ncnc(Nc2cccc(C[S@](C)(=N)=O)c2)n1", "read-out": "kinase activity", "concentration": "10 µM", "together with": "10 µM ATP", "measurement": "remaining activity", "result": "101%"}
{"SMILES": "CC(C)C(=O)Nc1n[nH]c2cc(-c3cccc(NS(=O)(=O)C4CC4)c3)ccc12", "method": "ADP-Glo", "concentration": "13.7 nM", "together with": "10 µM ATP", "measurement": "ADP produced", "result": "2.86 µM"}
{"SMILES": "Cc1nc(NC(=O)N2CCC[C@H]2C(N)=O)sc1-c1ccnc(C(C)(C)C(F)(F)F)c1", "method": "KINOMEscan", "concentration": "10 µM", "measurement": "remaining binding", "result": "100%"}
{"SMILES": "C[C@@H](c1ccc(-n2cnc3c(N)ncnc32)cc1)N1CCc2nn(C)c(Cc3ccccc3)c2C1=O", "method": "KINOMEscan", "concentration": "0.1 µM", "reference": "DMSO control", "measurement": "remaining binding", "result": "78%"}
{"note": "A few entries again:"}
{"SMILES": "C[C@@H](c1ccc(-n2cnc3c(N)ncnc32)cc1)N1CCc2nn(C)c(Cc3ccccc3)c2C1=O", "method": "KINOMEscan", "concentration": "0.1 µM", "reference": "DMSO control", "measurement": "remaining binding", "result": "78%"}
